Results from different studies.
Each line is one published result; not all experiments were run side by side. ± gives the spread as reported.

| SMILES | cell line | test | test system | conditions | IC50 [µM] |
| --- | --- | --- | --- | --- | --- |
| O=C(c1cc(Cc2n[nH]c(=O)c3ccccc23)ccc1F)N1CCN(C(=O)C2CC2)CC1 | HCC1569 |  |  |  | 0.356 |
| CCN(CCO)CCCC(C)Nc1ccnc2cc(Cl)ccc12 (stereo not drawn) | human PBMC | qRT-PCR, item: MX1 mRNA |  | with: ssRNA | 2.4 ± 0.9 |
| C[C@H]1[C@H](OC(=O)CCC(=O)O)O[C@@H]2O[C@@]3(C)CC[C@H]4[C@H](C)CC[C@@H]1[C@@]24OO3 | primary AML blasts 1 | cell viability | human | 96 h | 4.05 |
| Nc1ccn([C@@H]2O[C@H](CO)[C@@H](O)C2(F)F)c(=O)n1 | Capan-2 | cell viability, MTT |  | mutant KRAS primary | > 10 |
| CC(=O)[C@]1(O)Cc2c(O)c3c(c(O)c2[C@@H](O[C@H]2C[C@H](N)[C@H](O)[C@H](C)O2)C1)C(=O)c1ccccc1C3=O | primary human intestinal proliferative cells | barrier formation (TEER) |  | 48 h | 1.75 |
| CCO[C@@H](Cc1ccc(OCCn2c(C)ccc2-c2ccc(SC)cc2)cc1)C(=O)O | LX-2 hepatic stellate cells | collagen production, ELISA, item: Col1a1 |  | 48 h, serum-free, with: 2.5 ng/mL TGF-β1 | 12.1 ± 6.55 |
| N#Cc1ccc(Oc2ccc3c(c2)COB3O)cc1 | PBMC | cytokine release, MSD, item: IL-2 |  | 24 h, with: anti-CD3ε/anti-CD28 | 0.34 |
| O=C(Nc1ccnc(C(F)(F)F)c1)Nc1cccc2c1OC(F)(F)O2 | HFF | cell growth |  |  | 64 |
| C=CC(=O)N1CCC([C@@H]2CCNc3c(C(N)=O)c(-c4ccc(Oc5ccccc5)cc4)nn32)CC1 | TMD8 wild-type | calcium flux, FLIPR |  | 1 h preincubation, with: anti-IgM | 0.035 |
| CC(=O)c1c(O)c(C)c(O)c2c1OC1=CC(=O)C(C(C)=O)C(=O)C12C (single isomer, unassigned; (+)) | hepatocytes, iPSC-derived, line L1 | cell viability |  | 48 h | 7 |
| NS(=O)(=O)c1ccc(Cc2c(-c3cccc(-c4ccccc4)c3)[nH]n(-c3nc(C(=O)O)cs3)c2=O)cc1 | HEK293T | lactate production |  | 1 h | 21 |
| C=CC(=O)Nc1cccc(Oc2nc(Nc3ccc(N4CCN(C)CC4)cc3)nc3ccoc23)c1 | TMD8 wild-type | calcium flux, FLIPR |  | 4 h preincubation, with: anti-IgM | > 1 |
| CN(Cc1cnc2nc(N)nc(N)c2n1)c1ccc(C(=O)N[C@@H](CCC(=O)O)C(=O)O)cc1 | MTHFR C677T(+/−) SCRIB P1043L(−/−) forebrain tissues | neural rosette emergence |  |  | 0.0411 |
| C=CC(=O)Nc1cc(Nc2nccc(-c3cn(C)c4ccccc34)n2)c(OC)cc1N(C)CCN(C)C | Ba/F3 EGFR D770-N771insNPG | cell proliferation |  | 72 h | 0.111 ± 0.0152 |
| CC1(C)CCC2(CC1)N[C@@H](C(=O)N[C@@H]1CC[C@@H](C(N)=O)OC1)[C@H](c1ccnc(Cl)c1F)[C@]21C(=O)Nc2cc(Cl)ccc21 | well-differentiated liposarcoma cells (MDM2 amplified) | cell proliferation, alamarBlue |  | 72 h | 0.084 |
| CCOc1cc([C@@H](CS(C)(=O)=O)N2C(=O)c3cccc(NC(C)=O)c3C2=O)ccc1OC | PBMC | cytokine release, MSD, item: IL-1β |  | 24 h, with: anti-CD3ε/anti-CD28 | 0.072 |
| C[C@H]1CN(C2COC2)CCN1c1ccc(Nc2cc(-c3ccnc(N4CCn5c(cc6c5CC(C)(C)C6)C4=O)c3CO)cn(C)c2=O)nc1 | TMD8 wild-type | calcium flux, FLIPR |  | 4 h preincubation, with: anti-IgM | 0.0091 |

| SMILES | cell line | test | test system | conditions | IC50 [µM] |
| --- | --- | --- | --- | --- | --- |
| CSc1ccc(C(=O)/C=C/c2cc(C)c(OC(C)(C)C(=O)O)c(C)c2)cc1 | LX-2 hepatic stellate cells | collagen production, ELISA, item: Col1a1 |  | 48 h, serum-free, with: 2.5 ng/mL TGF-β1 | 1.96 ± 0.991 |
| Cc1c(C(=O)O)ccc2c3n(nc12)[C@@H]1[C@H](C3)N(CC2CC2)[C@@]2(C(=O)Nc3cc(Cl)ccc32)[C@H]1c1cccc(Cl)c1F | A204 | cell growth, alamarBlue |  | unbound, 4.5% of total | 0.00034 |
| COc1ccc(F)cc1C(=O)NCc1ccc(-c2nn([C@@H](C)C(F)(F)F)c(N)c2C(N)=O)cc1 | Rec1 | item: sCD40L |  | 24 h | 0.0061 ± 0.0001 |
| O=C(CNC(=O)c1cccc2ccccc12)Nc1ccccc1Oc1ccccc1 | SK-N-BE(2)-C | cell growth, inhibitor |  |  | 0.325 |
| Cc1c(C)c2c(c(C)c1O)CCC(C)(COc1ccc(CC3SC(=O)NC3=O)cc1)O2 (stereo not drawn) | hepatocytes, iPSC-derived, line L1 | cell viability, RealTime-Glo MT |  | 24 h, differentiation day 23 | 17 |
| O=C(Nc1c(Cl)cncc1Cl)c1ccc(OC(F)F)c(OCC2CC2)c1 | PBMC | cytokine release, MSD, item: IL-2 |  | 24 h, with: anti-CD3ε/anti-CD28 | 0.0018 |
| CCCCN1C[C@H](O)[C@@H](O)[C@@H](O)[C@H]1CO | sample BC patient fibroblasts | Gb3 level lowering, LC-MS/MS, item: Gb3 d18:1/22:0 |  | 216 h | 34.1 |
| CC#CC(=O)N1CCC[C@H]1c1nc(-c2ccc(C(=O)Nc3ccccn3)cc2)c2c(N)nccn12 | TMD8 wild-type | calcium flux, FLIPR |  | 2 h preincubation, with: anti-IgM | 0.022 |
| O=C(CNC(=O)c1cccc2ccccc12)Nc1ccccc1Oc1ccc(O)cc1 | SK-N-BE(2)-C | cell growth, inhibitor |  |  | 0.49 |
| NS(=O)(=O)c1ccc(Cc2cn(-c3nc(C(=O)O)cs3)nc2-c2cccc(-c3ccccc3)c2)cc1 | HEK293T | lactate production |  | 1 h | 10.3 |
| N#CC[C@H](C1CCCC1)n1cc(-c2ncnc3[nH]ccc23)cn1 | PBMC | cytokine release, MSD, item: IL-4 |  | 24 h, with: anti-CD3ε/anti-CD28 | 0.024 |
| C=CC(=O)N1CCC[C@@H](c2ccc(C(N)=O)c3[nH]ccc23)C1 | TMD8 wild-type | calcium flux, FLIPR |  | 2 h preincubation, with: anti-IgM | > 1 |
| COc1c(Cl)cccc1Nc1c(-c2ccncc2OC[C@@H]2COCCO2)[nH]c2c1C(=O)NCC2 | NCI-H2170 HER2-amplified | cell proliferation, CellTiter-Glo |  |  | 0.0167 |
| O=C(O)COCC(=O)O | hepatocytes, iPSC-derived, line L1 | cell viability, RealTime-Glo MT |  | 24 h, differentiation day 23 | 10000 |
| NS(=O)(=O)c1ccc(Cc2c(-c3ccc(F)c(F)c3)[nH]n(-c3nc(C(=O)O)cs3)c2=O)cc1 | HEK293T | lactate production |  | 1 h | > 50 |
| CC1(C)CCC(CN2CCN(c3ccc(C(=O)NS(=O)(=O)c4ccc(NCC5CCOCC5)c([N+](=O)[O-])c4)c(Oc4cnc5[nH]ccc5c4)c3)CC2)=C(c2ccc(Cl)cc2)C1 | CD56+ NK cells from myeloma patients | cell viability, high-throughput flow cytometry |  |  | 0.00712 |

Some of these lines once more:
| SMILES | cell line | test | test system | conditions | IC50 [µM] |
| --- | --- | --- | --- | --- | --- |
| CC(=O)[C@]1(O)Cc2c(O)c3c(c(O)c2[C@@H](O[C@H]2C[C@H](N)[C@H](O)[C@H](C)O2)C1)C(=O)c1ccccc1C3=O | primary human intestinal proliferative cells | barrier formation (TEER) |  | 48 h | 1.75 |
| N#Cc1ccc(Oc2ccc3c(c2)COB3O)cc1 | PBMC | cytokine release, MSD, item: IL-2 |  | 24 h, with: anti-CD3ε/anti-CD28 | 0.34 |
| O=C(c1cc(Cc2n[nH]c(=O)c3ccccc23)ccc1F)N1CCN(C(=O)C2CC2)CC1 | HCC1569 |  |  |  | 0.356 |
| C=CC(=O)N1CCC[C@@H](c2ccc(C(N)=O)c3[nH]ccc23)C1 | TMD8 wild-type | calcium flux, FLIPR |  | 2 h preincubation, with: anti-IgM | > 1 |
| NS(=O)(=O)c1ccc(Cc2cn(-c3nc(C(=O)O)cs3)nc2-c2cccc(-c3ccccc3)c2)cc1 | HEK293T | lactate production |  | 1 h | 10.3 |
